Measured values from different studies.
Numbered parts are unrelated; each lists some results of a single study. Positions count from the first letter of the parent shown.
UniProt P00519, sequence (whole entry, unmodified, looked up): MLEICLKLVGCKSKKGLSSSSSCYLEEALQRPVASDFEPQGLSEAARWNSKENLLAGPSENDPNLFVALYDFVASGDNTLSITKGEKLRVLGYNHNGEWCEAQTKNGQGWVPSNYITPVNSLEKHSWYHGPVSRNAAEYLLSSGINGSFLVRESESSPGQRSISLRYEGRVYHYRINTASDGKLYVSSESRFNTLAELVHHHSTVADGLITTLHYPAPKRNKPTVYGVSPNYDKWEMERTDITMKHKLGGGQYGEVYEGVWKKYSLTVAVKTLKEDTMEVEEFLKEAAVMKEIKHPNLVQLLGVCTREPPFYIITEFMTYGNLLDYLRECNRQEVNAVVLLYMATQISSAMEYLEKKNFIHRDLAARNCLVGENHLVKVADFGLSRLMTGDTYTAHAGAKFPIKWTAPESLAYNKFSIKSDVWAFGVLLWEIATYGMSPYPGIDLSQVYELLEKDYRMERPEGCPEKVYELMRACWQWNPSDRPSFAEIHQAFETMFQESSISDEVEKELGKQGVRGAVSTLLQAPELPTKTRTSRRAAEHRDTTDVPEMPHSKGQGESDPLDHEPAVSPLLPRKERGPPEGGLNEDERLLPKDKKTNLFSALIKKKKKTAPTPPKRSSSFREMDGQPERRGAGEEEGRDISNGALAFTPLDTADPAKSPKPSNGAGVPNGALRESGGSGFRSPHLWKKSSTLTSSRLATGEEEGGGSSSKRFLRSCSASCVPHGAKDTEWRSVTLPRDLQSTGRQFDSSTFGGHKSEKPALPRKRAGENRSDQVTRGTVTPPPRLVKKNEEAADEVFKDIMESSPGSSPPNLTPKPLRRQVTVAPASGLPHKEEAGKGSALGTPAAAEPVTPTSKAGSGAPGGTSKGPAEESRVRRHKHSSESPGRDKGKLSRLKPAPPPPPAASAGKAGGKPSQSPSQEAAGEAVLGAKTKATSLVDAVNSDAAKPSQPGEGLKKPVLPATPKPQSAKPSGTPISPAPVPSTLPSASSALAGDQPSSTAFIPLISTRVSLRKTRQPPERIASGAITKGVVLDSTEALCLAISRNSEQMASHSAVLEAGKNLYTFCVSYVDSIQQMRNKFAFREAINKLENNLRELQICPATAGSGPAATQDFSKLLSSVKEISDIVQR
UniProt Q15139, sequence (whole entry, looked up): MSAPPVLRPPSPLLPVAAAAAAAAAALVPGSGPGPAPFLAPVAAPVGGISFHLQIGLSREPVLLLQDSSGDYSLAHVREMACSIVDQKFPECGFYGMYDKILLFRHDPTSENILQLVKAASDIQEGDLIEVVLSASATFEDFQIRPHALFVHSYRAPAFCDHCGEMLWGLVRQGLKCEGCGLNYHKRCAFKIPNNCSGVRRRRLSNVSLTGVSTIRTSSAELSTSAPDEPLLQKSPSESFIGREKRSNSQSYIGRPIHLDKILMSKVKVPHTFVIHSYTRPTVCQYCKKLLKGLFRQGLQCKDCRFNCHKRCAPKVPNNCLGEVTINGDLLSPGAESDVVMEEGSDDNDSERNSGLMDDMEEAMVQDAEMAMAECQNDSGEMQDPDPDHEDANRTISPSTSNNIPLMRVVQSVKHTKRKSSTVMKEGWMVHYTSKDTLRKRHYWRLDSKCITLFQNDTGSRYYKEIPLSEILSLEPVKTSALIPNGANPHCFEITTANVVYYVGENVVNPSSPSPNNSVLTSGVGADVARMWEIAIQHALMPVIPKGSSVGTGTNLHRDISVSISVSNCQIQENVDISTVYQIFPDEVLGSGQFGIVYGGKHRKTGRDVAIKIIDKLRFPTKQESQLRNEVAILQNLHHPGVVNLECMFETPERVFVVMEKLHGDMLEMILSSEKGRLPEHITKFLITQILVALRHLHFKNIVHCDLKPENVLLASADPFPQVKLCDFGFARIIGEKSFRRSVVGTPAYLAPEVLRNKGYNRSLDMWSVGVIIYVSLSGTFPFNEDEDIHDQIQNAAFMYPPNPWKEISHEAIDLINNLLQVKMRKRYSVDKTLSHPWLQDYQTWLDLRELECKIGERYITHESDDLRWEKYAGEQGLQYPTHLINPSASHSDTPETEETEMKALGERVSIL
UniProt P53779, sequence (whole entry, looked up): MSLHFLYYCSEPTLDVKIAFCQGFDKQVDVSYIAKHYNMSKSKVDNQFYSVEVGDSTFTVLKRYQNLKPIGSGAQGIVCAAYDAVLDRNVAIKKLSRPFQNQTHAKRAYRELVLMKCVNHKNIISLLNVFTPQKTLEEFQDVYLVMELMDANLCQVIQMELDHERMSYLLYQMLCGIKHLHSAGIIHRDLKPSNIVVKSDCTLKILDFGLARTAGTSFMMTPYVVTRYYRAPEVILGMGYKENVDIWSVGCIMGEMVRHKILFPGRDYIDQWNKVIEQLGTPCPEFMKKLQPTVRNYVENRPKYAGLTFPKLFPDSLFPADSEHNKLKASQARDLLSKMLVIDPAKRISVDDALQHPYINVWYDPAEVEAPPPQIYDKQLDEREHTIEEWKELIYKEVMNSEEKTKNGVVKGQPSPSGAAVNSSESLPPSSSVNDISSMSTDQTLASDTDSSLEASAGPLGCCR
UniProt Q9UKI8, sequence (whole entry, looked up): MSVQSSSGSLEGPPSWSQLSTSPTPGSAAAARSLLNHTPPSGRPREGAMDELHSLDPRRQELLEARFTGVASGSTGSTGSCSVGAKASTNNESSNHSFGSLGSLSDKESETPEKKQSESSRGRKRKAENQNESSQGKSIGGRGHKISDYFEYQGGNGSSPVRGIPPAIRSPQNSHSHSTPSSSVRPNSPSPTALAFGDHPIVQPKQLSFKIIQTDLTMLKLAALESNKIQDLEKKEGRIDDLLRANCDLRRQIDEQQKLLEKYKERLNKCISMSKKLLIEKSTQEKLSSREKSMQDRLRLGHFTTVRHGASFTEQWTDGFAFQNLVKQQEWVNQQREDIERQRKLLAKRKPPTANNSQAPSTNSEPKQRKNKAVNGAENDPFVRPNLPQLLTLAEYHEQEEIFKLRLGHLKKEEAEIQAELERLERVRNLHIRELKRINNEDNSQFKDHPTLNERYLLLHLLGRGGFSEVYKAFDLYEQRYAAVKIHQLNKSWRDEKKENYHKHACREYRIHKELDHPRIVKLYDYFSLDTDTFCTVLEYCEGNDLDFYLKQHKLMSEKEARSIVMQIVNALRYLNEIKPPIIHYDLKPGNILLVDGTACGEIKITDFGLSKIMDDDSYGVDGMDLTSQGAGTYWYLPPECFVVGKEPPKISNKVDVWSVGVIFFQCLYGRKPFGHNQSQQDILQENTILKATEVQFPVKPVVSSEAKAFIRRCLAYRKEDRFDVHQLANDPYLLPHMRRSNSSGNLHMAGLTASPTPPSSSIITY
UniProt Q15418, sequence (whole entry, looked up): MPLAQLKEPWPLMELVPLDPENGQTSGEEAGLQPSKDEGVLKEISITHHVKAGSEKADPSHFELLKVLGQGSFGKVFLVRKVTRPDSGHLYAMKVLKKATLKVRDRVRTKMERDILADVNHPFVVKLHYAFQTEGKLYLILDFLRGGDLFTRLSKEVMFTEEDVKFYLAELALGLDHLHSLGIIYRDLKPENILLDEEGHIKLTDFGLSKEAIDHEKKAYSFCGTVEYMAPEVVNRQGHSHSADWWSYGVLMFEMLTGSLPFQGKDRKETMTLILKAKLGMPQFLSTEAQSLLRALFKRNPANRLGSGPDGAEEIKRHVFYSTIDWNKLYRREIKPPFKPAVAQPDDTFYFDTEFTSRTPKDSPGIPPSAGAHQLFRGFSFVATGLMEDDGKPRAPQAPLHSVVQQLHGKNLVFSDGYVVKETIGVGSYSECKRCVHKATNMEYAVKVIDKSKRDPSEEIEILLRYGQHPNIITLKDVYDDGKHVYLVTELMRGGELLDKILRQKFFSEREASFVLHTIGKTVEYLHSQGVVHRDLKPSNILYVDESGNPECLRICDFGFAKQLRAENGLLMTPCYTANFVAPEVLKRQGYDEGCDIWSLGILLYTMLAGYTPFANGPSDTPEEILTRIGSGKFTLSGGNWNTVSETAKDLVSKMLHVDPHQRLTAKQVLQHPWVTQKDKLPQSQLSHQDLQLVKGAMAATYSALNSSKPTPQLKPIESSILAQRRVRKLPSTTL

Sample 1 — observed: enzyme activity; action: inhibitor; concentration: 0.5 µM; reference: control
Target: Serine/threonine-protein kinase Sgk3 (SGK3, Homo sapiens, UniProt Q96BR1)
UniProt Q96BR1, sequence (whole entry, looked up): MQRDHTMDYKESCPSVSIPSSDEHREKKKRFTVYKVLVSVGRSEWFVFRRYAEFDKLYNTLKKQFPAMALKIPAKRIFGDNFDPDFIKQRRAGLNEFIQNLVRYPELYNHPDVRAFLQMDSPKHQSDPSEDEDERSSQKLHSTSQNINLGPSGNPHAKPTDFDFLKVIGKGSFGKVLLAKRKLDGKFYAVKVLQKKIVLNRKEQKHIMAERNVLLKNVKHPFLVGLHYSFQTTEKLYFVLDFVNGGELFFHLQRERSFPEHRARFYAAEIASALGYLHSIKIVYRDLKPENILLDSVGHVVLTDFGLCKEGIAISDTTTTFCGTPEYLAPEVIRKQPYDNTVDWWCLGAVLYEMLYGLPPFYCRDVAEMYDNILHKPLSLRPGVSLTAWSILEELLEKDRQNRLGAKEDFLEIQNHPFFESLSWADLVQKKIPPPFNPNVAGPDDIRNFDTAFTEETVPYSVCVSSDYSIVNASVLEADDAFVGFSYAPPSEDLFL
Structure (SMILES) | remaining activity
CO[C@H]1C[C@@H]2CC[C@@H](C)[C@@](O)(O2)C(=O)C(=O)N2CCCC[C@H]2C(=O)O[C@H]([C@H](C)C[C@@H]2CC[C@@H](O)[C@H](OC)C2)CC(=O)[C@H](C)/C=C(\C)[C@@H](O)[C@@H](OC)C(=O)[C@H](C)C[C@H](C)/C=C/C=C/C=C/1C | 98.1%
COc1ccc(C(=O)Nc2sc3c(c2C(N)=O)CCCC3)cc1OC | 103%
O=C(CCCc1ccc(-c2ccccc2F)cc1)Nc1ccc(O)cc1 | 106%
OCC(O)CCON=C1C(c2c(O)[nH]c3ccccc23)=Nc2ccccc21 (centres unmarked) | 100%
COc1cc2ncnc(Nc3ccc(Oc4ccccc4)cc3)c2cc1OC | 101%
CN(C)c1ccc(C=C2C(=O)Nc3ccccc32)cc1 | 107%
Cc1ccc(Nc2nccc(N(C)c3ccc4c(C)n(C)nc4c3)n2)cc1S(N)(=O)=O | 97.5%
CC(C)[C@H](CO)Nc1nc(Nc2cc(N)cc(Cl)c2)c2ncn(C(C)C)c2n1 | 99.9%
Cc1nc(-c2ccccc2)c(-c2ccncc2)o1 | 96.4%
CCOC(=O)c1c(C)[nH]c(/C=C2\C(=O)Nc3ccccc32)c1C | 88.1%
Cc1cccc(-c2[nH]c(C(C)(C)C)nc2-c2ccc3c(c2)OCO3)n1 | 98%
Oc1ccc(-c2nc(-c3ccncc3)c(-c3ccc(F)cc3)[nH]2)cc1 | 98.4%
NCCNc1ncc(C(N)=O)c(Nc2cccc(C(F)(F)F)c2)n1 | 96.1%
N#CC(C#N)=C(N)/C(C#N)=C/c1ccc(O)cc1 | 103%
O=C1NC(=O)C(c2cn(CCCn3ccnc3)c3ccccc23)=C1Nc1ccccc1 | 89.9%
COc1cc2nccc(Oc3ccc(NC(=S)NC(=O)c4ccccc4C)cc3)c2cc1OC | 98.3%

Sample 2 — target: OGT, full length, His-tagged (human); technique: phage display, sequencing; medium: in vitro; concentration: 1 µg OGT; reference: input library; direction: higher = stronger binding; parent: peptide; VAYPNSYMPKYQIST
Setting: single substitutions, 15-mer displayed peptide, unchanged parent 6.14
Substitution | fold enrichment
VAYPNSYMPQYQIST [K10Q] | 3.8 fold
VAYPNSYMGKYQIST [P9G] | 1.27 fold
VAYNNSYMPKYQIST [P4N] | 5.8 fold
VAYPNSYSPKYQIST [M8S] | 0.798 fold
VAYPNSYMEKYQIST [P9E] | 0.561 fold
VGYPNSYMPKYQIST [A2G] | 5.18 fold
VAYPNSYMMKYQIST [P9M] | 1.96 fold
VAQPNSYMPKYQIST [Y3Q] | 4.71 fold

Sample 3 — technique: competition with immobilised ligand; concentration: 1 µM
SMILES: Cn1nc(C(F)(F)F)cc1-c1cnc(N2CCc3cc(S(=O)(=O)Nc4c(F)cc(Cl)cc4F)cc(N4CCCC4=O)c32)nc1
target | test | remaining binding [%]
Tyrosine-protein kinase ABL1, phosphorylated (ABL1, Homo sapiens, UniProt P00519, E255K) | binding | 89
RET (Homo sapiens, UniProt P07949, V804L) | cell-free assay | 100
MAP3K13 (Homo sapiens, UniProt O43283) | cell-free assay | 79
BTK (Homo sapiens, UniProt Q06187) | cell-free assay | 85
TLK1 (Homo sapiens, UniProt Q9UKI8) | cell-free assay | 78
MAP4K4 (Homo sapiens, UniProt O95819) | cell-free assay | 83
TIE1 (Homo sapiens, UniProt P35590) | cell-free assay | 100
FGFR3 (Homo sapiens, UniProt P22607, G697C) | cell-free assay | 100
PRKD1 (Homo sapiens, UniProt Q15139) | cell-free assay | 80
Tyrosine-protein kinase ABL1, phosphorylated (ABL1, Homo sapiens, UniProt P00519, F317L) | cell-free assay | 94
NIM1K (Homo sapiens, UniProt Q8IY84) | cell-free assay | 80
Ribosomal protein S6 kinase alpha-1, C-terminal kinase domain (RPS6KA1, Homo sapiens, UniProt Q15418) | cell-free assay | 96
GRK7 (Homo sapiens, UniProt Q8WTQ7) | cell-free assay | 85
MAPK10 (Homo sapiens, UniProt P53779) | cell-free assay | 100
NEK9 (Homo sapiens, UniProt Q8TD19) | cell-free assay | 100

Sample 4 — technique: protein-binding microarray; molecule type: double-stranded DNA, one strand shown; medium: in vitro; concentration: 2200 nM top; setting: 60-bp whole probe; together with: salmon DNA 0.4 mg/ml; reference: random background probes; direction: higher = stronger binding; all sequences stand within: GCCTAGCAC … GTCTTGATTCGCTTGACGCTGCTG
Target: Interferon regulatory factor 7, full length, phosphomimetic (IRF7, Homo sapiens, UniProt Q92985, residues 1-503, S471D/S472D/S475D/S476D/S477D/S483D/S484D/S487D)
UniProt Q92985, sequence (whole entry, unmodified, looked up): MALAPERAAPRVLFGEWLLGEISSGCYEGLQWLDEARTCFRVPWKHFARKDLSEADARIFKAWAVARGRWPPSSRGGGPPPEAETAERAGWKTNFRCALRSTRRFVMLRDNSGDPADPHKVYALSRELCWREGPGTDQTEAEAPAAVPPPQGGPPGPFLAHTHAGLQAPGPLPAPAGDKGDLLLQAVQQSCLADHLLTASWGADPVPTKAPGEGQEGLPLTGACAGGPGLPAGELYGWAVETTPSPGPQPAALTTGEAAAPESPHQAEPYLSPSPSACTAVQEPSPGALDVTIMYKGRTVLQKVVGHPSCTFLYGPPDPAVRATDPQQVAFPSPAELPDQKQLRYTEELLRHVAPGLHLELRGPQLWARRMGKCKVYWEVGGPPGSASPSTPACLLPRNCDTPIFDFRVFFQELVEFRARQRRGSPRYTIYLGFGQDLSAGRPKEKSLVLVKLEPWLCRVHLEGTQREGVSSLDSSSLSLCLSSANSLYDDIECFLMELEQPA
Oligonucleotide | fitted relative affinity
CTGCCTCACATTGCTAAGACGTGCTAG | 0.683 z-score
TTAGATTTCGGGTATCGAATAGTGCTA | 2.35 z-score
TGTTACTAGGGTTACATAATGTGCTAG | 0.274 z-score
GACGGACTGGACTATCAGGACGTGCTA | -0.947 z-score
ATTGATAGTTTCACAATGCCGTGCTAG | 3.52 z-score
TTAGGACTGCACACTGGGTTAGTGCTA | -0.289 z-score
GACGGTCTCCTTATCCTAACGTGCTAG | 1.15 z-score
TCCTCTTTCTCTGCTACCCTCGTGCTA | 2.67 z-score

A few entries again (sample 2):
Substitution | fold enrichment
VAYPNSYMGKYQIST [P9G] | 1.27 fold
VAYPNSYSPKYQIST [M8S] | 0.798 fold
VAYPNSYMMKYQIST [P9M] | 1.96 fold
VAYNNSYMPKYQIST [P4N] | 5.8 fold
VAYPNSYMPQYQIST [K10Q] | 3.8 fold
